Values quoted from earlier work as cited in several papers.
Each line is one published result; not all experiments were run side by side. Values joined by “and” are separate records of one study, mostly repeats; a detail may differ. ± marks the error that the study gave. Converted amounts (≈) assume the structure as drawn.
Chain of UniProt P34972 (whole entry, looked up): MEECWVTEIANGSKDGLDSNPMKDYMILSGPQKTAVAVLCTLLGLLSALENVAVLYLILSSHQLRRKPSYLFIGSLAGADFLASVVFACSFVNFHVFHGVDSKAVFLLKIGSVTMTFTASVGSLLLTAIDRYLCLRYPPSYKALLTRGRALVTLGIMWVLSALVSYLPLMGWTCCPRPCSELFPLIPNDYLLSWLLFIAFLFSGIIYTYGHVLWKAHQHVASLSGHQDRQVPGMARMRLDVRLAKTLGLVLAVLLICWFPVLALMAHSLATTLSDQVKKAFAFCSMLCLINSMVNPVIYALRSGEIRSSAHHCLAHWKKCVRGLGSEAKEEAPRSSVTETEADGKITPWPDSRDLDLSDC

Compound	tested on	test	system	conditions	how to read	quantity	result
O=C(Oc1ccccc1)c1ccc(O)cc1		octanol-water				logP	3.26
FC(F)(F)c1cc2nc(c1)CNCCNCCNC2.[Cu+2]		cyclic voltammetry	DMF	scan rate 100 mV/s	relative to: Fc/Fc+	anodic peak potential	-823 mV
CC(=O)N1CCN(C(=O)c2ccc(Nc3nccc(-c4ccc(Cl)cc4)n3)cc2)CC1			mouse			half-life	120 to 180 min
Cc1ccc(CN)cc1				amine, free unbound form		pKa	9.5
c1ccc2c3c([nH]c2c1)C(c1c[nH]c2ncccc12)NCC3 (stereo not shown)	COLO 320 ABCB1-resistant colon	cytotoxicity				IC50	54.2 µM and 50 to 80 µM
COc1ccc2c(c1)O[B-]1(c3ccccc3)OC(=O)C(c3ccccc3)=N[N+]1=C2C (stereo not shown)			buffer with 1.5% acetonitrile	concentration not given, pH 7		hydrolysis half-life	18 min
CCCCCCCCCOC(=O)c1ccc(O)cc1				pH 7.4		logD	4.45
O=C(O)CN1CCN(CC(=O)O)CCN(CC(=O)O)CC1		protonation constants		0.1 M Me4NCl		sum of log KiH	24.1
COC1=CC(c2ccc[nH]2)=NC1=CNC12CC3CC(CC(C3)C1)C2.Cl		metabolic stability	human liver microsomes			half-life	> 60 min
C/C(N)=N/C(=N\S(=O)(=O)c1ccc(C(F)(F)F)cc1)N1C[C@H](c2ccccc2)C(c2ccc(Cl)cc2)=N1			wild-type mouse			brain to plasma ratio	< 3%
O=C(Nc1cnccc1-c1ccc([18F])cc1)c1ccnc(NC(=O)C2CC2)c1		PET	wild-type mice	5 min		brain uptake	0.92 ± 0.28 SUV
CN1CCN(c2ccc3[nH]c(-c4ccc5[nH]c(-c6ccc(OCCCCNC(=O)c7ccc8c(c7)C7(OC8=O)c8ccc(N(C)C)cc8[Si](C)(C)c8cc(N(C)C)ccc87)cc6)nc5c4)nc3c2)CC1			PBS with 0.1% SDS			fluorescence quantum yield	0.524 ± 0.001
O=C(OC(C(F)(F)F)C(F)(F)F)N1CCC(C(O)(c2ccc3c(c2)OCO3)c2ccc3c(c2)OCO3)CC1						logD	4.6
CN1CCN(c2ccc3[nH]c(-c4ccc5[nH]c(-c6ccc(OCCCCNC(=O)c7ccc8c(c7)C7(OC8=O)c8ccc(N(C)C)cc8C(C)(C)c8cc(N(C)C)ccc87)cc6)nc5c4)nc3c2)CC1			PBS			fluorescence quantum yield	0.033 ± 0.003
Cc1ccc2c(c1)nc(CCN1C(=O)c3cccc4cccc(c34)C1=O)n2-c1ccncc1			Sprague-Dawley rat	oral, 10 mg/kg		AUC(0-t)	55 ng·h/mL
O=C([O-])CN(CC(=O)[O-])C1CCCCC1N(CC(=O)[O-])CC(=O)[O-].[Mn+2] (stereo not shown)				transmetallation, added: Zn(II) 25 mM		half-life	11 min
COc1cccc2c1C(=O)c1c(O)c3c(c(O)c1C2=O)C[C@@](O)(C(=O)CO)C[C@@H]3O[C@H]1C[C@H](N)[C@H](O)[C@H](C)O1						water solubility	243 µg/mL (≈ 447 µM)
CN1CCN(c2ccc3[nH]c(-c4ccc5[nH]c(-c6ccc(OCCCCNC(=O)c7ccc8c(c7)C(=O)OC87c8ccc(N(C)C)cc8C(C)(C)c8cc(N(C)C)ccc87)cc6)nc5c4)nc3c2)CC1			PBS			fluorescence quantum yield	0.052 ± 0.004
CC(O)CN1CCN(CC(=O)O)CCN(CC(=O)O)CCN(CC(=O)O)CC1 (stereo not shown)			0.1 M Me4NCl	25 °C		log K GdL	23.8
Oc1c(C(c2ccccc2)c2c[nH]c3ccccc23)cc(Cl)c2cccnc12 (stereo not shown)	MRC-5 fibroblasts	cell viability				IC50	29.3 µM and 30.1 µM
N=C(NCCCCNc1nc(N)nc(N)n1)c1ccc(C(=N)NCCCCNc2nc(N)nc(N)n2)cc1			mouse			maximum non-toxic dose	50 to 100 mg/kg
[O-]c1cccc(-c2cccc([O-])n2)n1.[Ru+2].c1cnc2c(c1)ccc1cccnc12.c1cnc2c(c1)ccc1cccnc12			CD3OD	basic deprotonated form		singlet oxygen quantum yield	0.87

Compound	tested on	test	system	conditions	how to read	quantity	result
CC1(N(CC(=O)O)CC(=O)O)CN(CC(=O)O)CCN(CC(=O)O)C1		pH-potentiometry, item: logK2H	0.1 M KCl	25 °C		protonation constant (log)	6.52
CCCCCCCCCCCCOC(=O)c1ccc(O)cc1		octanol-water				logP	7.28
Oc1cccc(-c2cccc(O)n2)n1.[Cl-].[Cl-].[Ru+2].c1cnc2c(c1)ccc1cccnc12.c1cnc2c(c1)ccc1cccnc12			CD3OD	basic deprotonated form		singlet oxygen quantum yield	0.87
O=C(O)CN1CCNCCNCCN(CC(=O)O)CC1			0.1 M KCl			log KH2	9.58
CCn1c(=O)c(-c2cc(NC(=O)Nc3ccccc3)c(F)cc2Br)cc2cnc(N)cc21			patients, plasma	150 mg once daily, median		Cmax	1250 ng/mL
Clc1cc2nc(c1)CNCCNCCNC2.[Cu+2]		cyclic voltammetry	DMF	scan rate 100 mV/s	relative to: Fc/Fc+	half-wave potential	-929 mV
CN1CCN(c2ccc3[nH]c(-c4ccc5[nH]c(-c6ccc(OCCCCNC(=O)c7ccc8c(c7)C(=O)OC87c8ccc(N(C)C)cc8[Si](C)(C)c8cc(N(C)C)ccc87)cc6)nc5c4)nc3c2)CC1			PBS	2 µM, added: 30 µM hairpin DNA		fluorescence quantum yield	0.374 ± 0.006
CC(C)OC(=O)c1ccc(O)cc1				pH 7.4		logD	2.77
[Cu+2].c1cc2nc(c1)CNCCNCCNC2		cyclic voltammetry	DMF	scan rate 100 mV/s		peak separation ΔE	93 mV
O=C(O)CCCCC1(N(CC(=O)O)CC(=O)O)CN(CC(=O)O)CCN(CC(=O)O)C1		pH-potentiometry, item: logK4H	0.15 M NaCl	25 °C		protonation constant (log)	3.73
COc1ccc(Nc2nc(Nc3ccc(OCC[18F])cc3)ncc2Br)cc1			S180 tumour-bearing mice, blood	intravenous, 120 min		tissue uptake	0.81 ± 0.01 %ID/g
COc1cc2nc(c1)CNCCNCCNC2.[Cu+2]		cyclic voltammetry	DMF	scan rate 100 mV/s	relative to: Fc/Fc+	cathodic peak potential	-1070 mV
O=c1ccc(OCCCN2CCCCC2)nn1-c1ccc(Cl)c(Cl)c1	Cannabinoid receptor 2 (CNR2, Homo sapiens, UniProt P34972)			1.0 µM		inhibition	38.6 ± 1.9%
c1ccc2cc3c(ccc4ccccc43)cc2c1				experimental mean or OPERA estimate		log Kow	5.6
COc1ccc2ncc(F)c(C[C@H](O)[C@H]3OC[C@H](NCc4ccc5c(n4)NC(=O)CO5)CO3)c2c1			mouse liver microsomes			metabolic half-life	45.3 min
CCC(=[NH+][Pt-2]1([Cl])[NH2+]CCC[NH2+]1)N(C)CCNc1c2ccccc2[nH+]c2ccccc12.O=[N+]([O-])[O-].O=[N+]([O-])[O-] (stereo not shown)				9-aminoacridine chromophore		pKa	9.5 to 10
Ic1cc2nc(c1)CNCCNCCNC2.[Cu+2]		cyclic voltammetry	DMF	scan rate 100 mV/s	relative to: Fc/Fc+	half-wave potential	-859 mV
COC1=CC(c2ccc[nH]2)=NC1=CNC1CCCCCC1.Cl		metabolic stability	human liver microsomes			half-life	52.1 min
Cc1cc(NC(=O)Cn2nnc(-c3cccc(F)c3)n2)n(C2CCCCC2)n1			liver microsomes			metabolic stability	unstable
O=C(O)CN1CCOCCN(CC(=O)O)Cc2cccc(n2)C1				0.15 M NaCl		sum of log KiH	17.5
CC[C@H](C)[C@H](NC(=O)[C@H](Cc1ccccc1)NC(=O)[C@H](CCC(=O)O)NC(=O)[C@H](CCCCN)NC(=O)[C@H](C)NC(=O)[C@H](C)NC(=O)[C@H](CCC(N)=O)NC(=O)CNC(=O)[C@H](CCC(=O)O)NC(=O)[C@H](CC(C)C)NC(=O)[C@H](Cc1ccc(O)cc1)NC(=O)[C@H](CO)NC(=O)[C@H](CO)NC(=O)[C@@H](NC(=O)[C@H](CC(=O)O)NC(=O)[C@H](CO)NC(=O)[C@@H](NC(=O)[C@H](Cc1ccccc1)NC(=O)[C@@H](NC(=O)CNC(=O)[C@@H](N)CCC(=O)O)[C@@H](C)O)[C@@H](C)O)C(C)C)C(=O)N[C@@H](C)C(=O)N[C@@H](Cc1c[nH]c2ccccc12)C(=O)N[C@@H](CC(C)C)C(=O)N[C@H](C(=O)N[C@@H](CCCCN)C(=O)NCC(=O)N[C@@H](CCCNC(=N)N)C(N)=O)C(C)C		item: GLP-1 metabolite	plasma			fraction of circulating GLP-1	~60%

A few entries again:
Compound	tested on	test	system	conditions	how to read	quantity	result
O=C(Oc1ccccc1)c1ccc(O)cc1		octanol-water				logP	3.26
FC(F)(F)c1cc2nc(c1)CNCCNCCNC2.[Cu+2]		cyclic voltammetry	DMF	scan rate 100 mV/s	relative to: Fc/Fc+	anodic peak potential	-823 mV
CC(=O)N1CCN(C(=O)c2ccc(Nc3nccc(-c4ccc(Cl)cc4)n3)cc2)CC1			mouse			half-life	120 to 180 min
Cc1ccc(CN)cc1				amine, free unbound form		pKa	9.5
c1ccc2c3c([nH]c2c1)C(c1c[nH]c2ncccc12)NCC3 (stereo not shown)	COLO 320 ABCB1-resistant colon	cytotoxicity				IC50	54.2 µM and 50 to 80 µM
